Experimental data collected from several papers.
Target: Mitogen-activated protein kinase kinase kinase 5 (MAP3K5, Homo sapiens, UniProt Q99683)

SMILES | assay | test system | setting | scale | endpoint | result
Cc1nc2c(F)cc(-c3nc(Nc4ccc(CNC(=O)CCCCCCC(=O)NO)cc4)ncc3F)cc2n1C(C)C | enzyme activity, inhibitor |  | 1 µM |  | inhibition | 9%
CC(C)=CC1OC(C)(C)C2C=C3C(=O)C(Cl)=CC(O)C3C3C(O)C4OC4C(=O)C132 (centres unmarked) | cell-free assay, competition with immobilised ligand |  | 10 µM |  | remaining binding | 100%
NC(=O)[C@@H](O)C[C@H]1CCc2sc3ncnc(O[C@H]4CC[C@H](N5CCOCC5)CC4)c3c21 | enzyme activity, inhibitor |  | 10 µM |  | inhibition | 4%
CS(=O)(=O)Nc1cccc(-c2csc3cnc(Nc4ccc(N5CCN(CCCCCOc6cccc7c6C(=O)N(C6CCC(=O)NC6=O)C7=O)CC5)cc4)nc23)c1 (centres unmarked) | probe labelling, inhibitor, KiNativ chemoproteomics | MOLT-4 | 1 µM |  | inhibition | 2.14%
COc1cc(Nc2nccc(-c3cnn4nc(OC)ccc34)n2)cc(C(F)(F)F)c1 | binding, competition with immobilised ligand |  | 1 µM |  | remaining binding | 100%
CNC(=O)C1CCN(c2cc(C)c(F)cc2NC(=O)c2ccc(-c3cc(O)ccc3C)c(C)c2)CC1 | binding, competition with immobilised ligand |  | 1 µM |  | remaining binding | 95%
CN1CCN(Cc2ccc(-c3ccc(CO[C@H]4CCC[C@@H]4NC(=O)c4cc(-c5cnn(C)c5)cnc4N)cc3)cc2)CC1 | enzyme activity, inhibitor |  | 0.1 µM |  | inhibition | -4%
O=C(O)CCC(=O)c1cccc(NS(=O)(=O)c2c[nH]c3ncccc23)c1 | kinase activity, radiometric |  | 10 µM |  | remaining activity | 91%
CCN1CCN(Cc2ccc(C(=O)Nc3ccc(C)c(NCc4cnc5[nH]ccc5c4OC)c3)cc2C(F)(F)F)CC1 | binding, competition with immobilised ligand |  | 1 µM |  | remaining binding | 91%
CNC1C[S+]2CC[S+]3CC[S+](C1)[Ru-4]321([N]=C=S)[n]2c3ccc(OC)cc3c3c4c(c5cc(F)c[n+]1c5c32)C(=O)NC4=O (centres unmarked) | KinomeScan |  | 0.1 µM | reference: untreated | remaining binding | 100%
CNC(=O)C[C@H](Cc1ccc(C#N)cc1)NC(=O)c1cc(-c2ccc(CN[C@H](C)c3ccc(C)cc3)o2)ccc1Cl | enzyme activity, inhibitor |  | 1 µM |  | activity vs control | 101%
C=CC(=O)N1Cc2nc(-c3cc(-c4cc(Cl)cnc4Cl)c(F)cc3F)n(-c3ccncn3)c2C1 | cell-free assay, inhibitor |  | 1 µM |  | inhibition | 10.7%
COc1c(Cl)cccc1Nc1c(-c2ccncc2C#C[C@@]2(C)CCCN2C(=O)/C=C/CN(C)C)[nH]c2c1C(=O)NCC2 | binding, competition with immobilised ligand |  | 3 µM |  | remaining binding | 100%
Nc1ncc2c(n1)-c1c([nH]c3ccc(C4=CCOCC4)cc13)CCC2 | binding, competition with immobilised ligand |  | 1 µM |  | remaining binding | 100%

Some of these lines once more:
SMILES | assay | test system | setting | scale | endpoint | result
CNC(=O)C[C@H](Cc1ccc(C#N)cc1)NC(=O)c1cc(-c2ccc(CN[C@H](C)c3ccc(C)cc3)o2)ccc1Cl | enzyme activity, inhibitor |  | 1 µM |  | activity vs control | 101%
